Measurements of several laboratories.
Values joined by “and” are separate records of one study, mostly repeats; a detail may differ.
Chain of UniProt Q99640 (whole entry, looked up): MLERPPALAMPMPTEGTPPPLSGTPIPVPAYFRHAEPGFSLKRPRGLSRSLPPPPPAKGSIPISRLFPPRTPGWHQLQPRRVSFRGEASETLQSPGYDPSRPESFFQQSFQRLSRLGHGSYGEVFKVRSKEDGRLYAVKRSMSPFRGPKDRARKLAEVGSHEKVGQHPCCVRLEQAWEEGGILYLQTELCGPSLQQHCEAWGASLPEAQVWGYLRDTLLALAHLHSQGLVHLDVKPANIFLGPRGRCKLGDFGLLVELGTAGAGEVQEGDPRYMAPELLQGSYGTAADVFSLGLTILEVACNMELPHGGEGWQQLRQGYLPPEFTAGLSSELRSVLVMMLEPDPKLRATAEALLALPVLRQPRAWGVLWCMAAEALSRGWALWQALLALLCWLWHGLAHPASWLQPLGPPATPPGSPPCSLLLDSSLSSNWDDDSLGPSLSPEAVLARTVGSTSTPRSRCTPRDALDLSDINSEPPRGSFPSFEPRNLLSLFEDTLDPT
Chain of UniProt P41143 (whole entry, looked up): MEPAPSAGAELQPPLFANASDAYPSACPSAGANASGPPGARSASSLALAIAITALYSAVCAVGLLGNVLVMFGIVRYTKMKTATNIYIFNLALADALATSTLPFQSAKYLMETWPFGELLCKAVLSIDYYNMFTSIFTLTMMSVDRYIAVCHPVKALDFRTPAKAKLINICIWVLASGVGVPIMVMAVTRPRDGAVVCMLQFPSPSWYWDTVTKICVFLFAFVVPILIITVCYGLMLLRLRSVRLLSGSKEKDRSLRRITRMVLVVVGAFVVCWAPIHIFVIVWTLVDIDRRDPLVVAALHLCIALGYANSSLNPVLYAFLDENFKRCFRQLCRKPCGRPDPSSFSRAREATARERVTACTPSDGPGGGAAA

Compound	target or system	assay	test system	conditions	how to read	measurement	value
N=C(N)NCCCCCCN1CCC23c4c5ccc(O)c4OC2c2nc4ccccc4cc2CC3(O)C1C5 (stereo not drawn)	–	modified Racine scale	C57BL/6J mice, male	intracerebroventricular, 100 nmol, 75 min	direction not given	seizure score	0
COc1cc(C(=O)OCCCN2CCCN(CCCOC(=O)c3cc(OC)c(OC)c(OCc4ccc([N+](=O)[O-])cc4)c3)CC2)cc(OC)c1OC	–	–	CD-1 mice, male, brain	subcutaneous, 30 mg/kg, 8 h	–	concentration	73.3 ng/mL
N=C(N)NCCCCCCN1CC[C@]23c4c5ccc(O)c4O[C@H]2c2[nH]c4ccccc4c2C[C@@]3(O)[C@H]1C5	Delta-type opioid receptor, with Gi1 (OPRD1, Homo sapiens, UniProt P41143)	agonist	–	–	–	EC50	11.2 nM
Cn1cc(-c2cccc(CN3CCC4(CC3)COc3c4ccc4c3CN([C@H]3CCC(=O)NC3=O)C4=O)c2)cn1	–	–	mouse, Crbn I391V, thymus	oral, 30 mg/kg	–	Cmax	~786 nM
C=CCN1C(=O)C(O)(C(=O)O)Oc2cc(F)ccc21 (stereo not drawn)	Arabidopsis thaliana	root length	Col-0, seedlings	100 µg/mL	relative to: water control	inhibition	52.3%
Cc1ccc(O)c(C)c1-c1cnc2[nH]c(-c3cnc(N4CCC(CN5CCN(c6ccc7c8c(cccc68)C(=O)N7C6CCC(=O)NC6=O)CC5)CC4)nc3)cc2c1C#N (racemic)	PKMYT1 (Homo sapiens, UniProt Q99640)	binding, HTRF	–	0.051 nM	–	inhibition	-4.36% and -7.8%

Repeated from above:
Compound	target or system	assay	test system	conditions	how to read	measurement	value
N=C(N)NCCCCCCN1CCC23c4c5ccc(O)c4OC2c2nc4ccccc4cc2CC3(O)C1C5 (stereo not drawn)	–	modified Racine scale	C57BL/6J mice, male	intracerebroventricular, 100 nmol, 75 min	direction not given	seizure score	0
